# Assay results from different studies.
# Each line is one published result; not all experiments were run side by side. “And” joins repeats or separate records; there may be more than shown. Numbers after ± are the reported error.
# Chain of UniProt Q16774 (whole entry, looked up): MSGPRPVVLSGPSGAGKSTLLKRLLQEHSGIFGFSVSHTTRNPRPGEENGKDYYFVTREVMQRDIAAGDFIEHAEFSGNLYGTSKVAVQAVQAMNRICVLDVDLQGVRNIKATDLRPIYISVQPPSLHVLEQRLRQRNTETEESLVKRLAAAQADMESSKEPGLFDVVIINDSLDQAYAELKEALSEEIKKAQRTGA
# Chain of UniProt Q9UBN7 (whole entry, looked up): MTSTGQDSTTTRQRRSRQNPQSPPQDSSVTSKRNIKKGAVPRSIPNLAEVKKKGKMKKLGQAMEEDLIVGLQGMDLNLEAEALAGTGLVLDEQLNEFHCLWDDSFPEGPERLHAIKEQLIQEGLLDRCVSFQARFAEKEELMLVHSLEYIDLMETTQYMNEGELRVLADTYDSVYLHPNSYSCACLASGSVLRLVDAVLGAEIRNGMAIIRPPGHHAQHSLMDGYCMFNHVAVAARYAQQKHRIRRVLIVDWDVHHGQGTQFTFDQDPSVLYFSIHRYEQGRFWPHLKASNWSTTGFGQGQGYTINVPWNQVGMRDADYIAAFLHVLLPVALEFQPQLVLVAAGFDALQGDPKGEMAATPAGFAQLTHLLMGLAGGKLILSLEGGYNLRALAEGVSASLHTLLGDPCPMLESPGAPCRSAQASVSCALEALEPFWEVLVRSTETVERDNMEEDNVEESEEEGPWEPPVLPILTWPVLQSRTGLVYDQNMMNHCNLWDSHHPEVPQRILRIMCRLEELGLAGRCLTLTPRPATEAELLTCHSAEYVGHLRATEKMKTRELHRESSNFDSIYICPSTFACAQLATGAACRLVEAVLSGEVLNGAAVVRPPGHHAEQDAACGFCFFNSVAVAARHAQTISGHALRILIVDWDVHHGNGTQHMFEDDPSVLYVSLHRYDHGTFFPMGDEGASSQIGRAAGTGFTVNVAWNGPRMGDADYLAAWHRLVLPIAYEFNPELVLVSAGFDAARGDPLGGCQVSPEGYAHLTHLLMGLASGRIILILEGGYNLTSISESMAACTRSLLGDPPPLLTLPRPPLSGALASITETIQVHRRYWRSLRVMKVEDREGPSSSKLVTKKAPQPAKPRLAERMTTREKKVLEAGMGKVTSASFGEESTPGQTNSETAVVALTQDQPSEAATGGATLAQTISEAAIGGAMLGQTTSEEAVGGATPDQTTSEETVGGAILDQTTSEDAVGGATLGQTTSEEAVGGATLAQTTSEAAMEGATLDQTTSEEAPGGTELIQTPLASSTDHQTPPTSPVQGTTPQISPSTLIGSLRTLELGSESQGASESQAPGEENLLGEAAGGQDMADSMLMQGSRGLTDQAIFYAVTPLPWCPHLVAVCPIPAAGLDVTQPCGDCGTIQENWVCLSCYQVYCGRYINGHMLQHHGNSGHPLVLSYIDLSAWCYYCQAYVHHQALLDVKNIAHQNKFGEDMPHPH
# Chain of UniProt Q9HC97 (whole entry, looked up): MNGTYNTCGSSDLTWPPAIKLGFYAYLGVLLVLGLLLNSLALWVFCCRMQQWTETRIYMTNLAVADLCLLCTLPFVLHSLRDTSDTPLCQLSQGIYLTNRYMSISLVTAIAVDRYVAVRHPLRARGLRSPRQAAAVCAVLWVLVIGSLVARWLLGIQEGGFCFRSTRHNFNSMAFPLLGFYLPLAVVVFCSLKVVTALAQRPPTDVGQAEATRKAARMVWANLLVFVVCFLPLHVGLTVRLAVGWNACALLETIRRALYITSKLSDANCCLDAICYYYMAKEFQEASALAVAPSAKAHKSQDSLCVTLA
# Chain of UniProt P00698 (whole entry, looked up): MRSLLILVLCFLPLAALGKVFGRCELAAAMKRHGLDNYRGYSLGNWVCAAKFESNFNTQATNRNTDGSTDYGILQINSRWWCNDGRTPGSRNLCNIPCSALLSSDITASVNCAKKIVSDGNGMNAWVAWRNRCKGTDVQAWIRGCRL
# Chain of UniProt P40337 (whole entry, unmodified, looked up): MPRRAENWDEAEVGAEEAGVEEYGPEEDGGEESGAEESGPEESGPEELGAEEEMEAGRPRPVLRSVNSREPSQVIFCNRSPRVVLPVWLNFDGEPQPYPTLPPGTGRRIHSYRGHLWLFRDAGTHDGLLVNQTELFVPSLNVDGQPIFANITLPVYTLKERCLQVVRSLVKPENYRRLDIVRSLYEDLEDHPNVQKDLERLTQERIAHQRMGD
# Chain of UniProt P00519 (whole entry, unmodified, looked up): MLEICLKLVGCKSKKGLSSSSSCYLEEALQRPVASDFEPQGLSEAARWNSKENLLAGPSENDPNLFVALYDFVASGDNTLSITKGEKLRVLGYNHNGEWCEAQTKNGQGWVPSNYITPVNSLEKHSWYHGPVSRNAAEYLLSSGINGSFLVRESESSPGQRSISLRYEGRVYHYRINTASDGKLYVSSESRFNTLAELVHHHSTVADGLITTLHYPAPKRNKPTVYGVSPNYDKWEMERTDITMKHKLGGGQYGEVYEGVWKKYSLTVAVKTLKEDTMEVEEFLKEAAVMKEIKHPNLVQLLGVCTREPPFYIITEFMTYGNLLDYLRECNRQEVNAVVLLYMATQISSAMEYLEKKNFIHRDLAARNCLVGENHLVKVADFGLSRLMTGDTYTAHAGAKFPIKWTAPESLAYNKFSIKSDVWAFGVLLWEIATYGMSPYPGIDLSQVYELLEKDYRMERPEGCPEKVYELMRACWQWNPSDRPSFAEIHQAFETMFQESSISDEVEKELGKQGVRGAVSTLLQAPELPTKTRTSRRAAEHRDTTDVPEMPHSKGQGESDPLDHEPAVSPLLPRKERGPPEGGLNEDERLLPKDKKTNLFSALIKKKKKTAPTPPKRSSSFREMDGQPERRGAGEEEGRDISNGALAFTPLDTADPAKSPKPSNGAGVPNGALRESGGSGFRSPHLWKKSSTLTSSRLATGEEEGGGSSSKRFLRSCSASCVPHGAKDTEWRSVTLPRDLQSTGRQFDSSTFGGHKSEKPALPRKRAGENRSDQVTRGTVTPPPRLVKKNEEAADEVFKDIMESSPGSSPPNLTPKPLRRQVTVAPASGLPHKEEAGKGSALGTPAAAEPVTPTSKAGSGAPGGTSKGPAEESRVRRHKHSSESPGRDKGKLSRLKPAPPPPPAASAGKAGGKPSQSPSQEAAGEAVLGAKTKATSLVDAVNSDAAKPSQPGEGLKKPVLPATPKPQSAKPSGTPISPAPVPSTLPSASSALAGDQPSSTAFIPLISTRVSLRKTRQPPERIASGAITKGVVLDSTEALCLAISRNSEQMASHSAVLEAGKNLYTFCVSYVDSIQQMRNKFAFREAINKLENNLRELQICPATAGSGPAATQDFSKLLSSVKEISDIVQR
# Chain of UniProt P53341 (whole entry, unmodified, looked up): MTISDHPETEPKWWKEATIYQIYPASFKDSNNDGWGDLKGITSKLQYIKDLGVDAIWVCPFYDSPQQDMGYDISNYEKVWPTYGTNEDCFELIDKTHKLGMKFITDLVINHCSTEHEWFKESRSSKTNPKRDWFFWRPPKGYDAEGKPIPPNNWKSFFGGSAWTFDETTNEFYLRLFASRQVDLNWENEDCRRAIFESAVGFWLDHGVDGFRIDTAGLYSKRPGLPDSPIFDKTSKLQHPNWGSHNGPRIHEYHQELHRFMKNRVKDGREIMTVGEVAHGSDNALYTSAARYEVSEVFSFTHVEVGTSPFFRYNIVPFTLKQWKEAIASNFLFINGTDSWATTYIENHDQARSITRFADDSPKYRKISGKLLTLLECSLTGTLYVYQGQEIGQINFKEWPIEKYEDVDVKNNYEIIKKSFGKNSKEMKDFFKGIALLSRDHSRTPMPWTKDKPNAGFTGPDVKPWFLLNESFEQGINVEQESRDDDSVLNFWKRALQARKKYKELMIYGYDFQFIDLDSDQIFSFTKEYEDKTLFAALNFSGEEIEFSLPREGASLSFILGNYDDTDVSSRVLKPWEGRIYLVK
# Chain of UniProt Q9I4X0 (whole entry, looked up): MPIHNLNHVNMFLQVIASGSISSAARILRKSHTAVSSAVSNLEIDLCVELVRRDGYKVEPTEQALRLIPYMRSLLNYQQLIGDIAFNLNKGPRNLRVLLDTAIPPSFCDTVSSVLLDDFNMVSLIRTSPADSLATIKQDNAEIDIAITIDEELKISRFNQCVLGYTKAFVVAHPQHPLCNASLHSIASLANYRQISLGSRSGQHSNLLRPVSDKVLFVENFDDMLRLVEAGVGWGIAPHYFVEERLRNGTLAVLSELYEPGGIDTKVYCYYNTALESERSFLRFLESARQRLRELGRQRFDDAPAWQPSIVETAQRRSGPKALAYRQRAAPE
# Chain of UniProt Q695T7 (whole entry, looked up): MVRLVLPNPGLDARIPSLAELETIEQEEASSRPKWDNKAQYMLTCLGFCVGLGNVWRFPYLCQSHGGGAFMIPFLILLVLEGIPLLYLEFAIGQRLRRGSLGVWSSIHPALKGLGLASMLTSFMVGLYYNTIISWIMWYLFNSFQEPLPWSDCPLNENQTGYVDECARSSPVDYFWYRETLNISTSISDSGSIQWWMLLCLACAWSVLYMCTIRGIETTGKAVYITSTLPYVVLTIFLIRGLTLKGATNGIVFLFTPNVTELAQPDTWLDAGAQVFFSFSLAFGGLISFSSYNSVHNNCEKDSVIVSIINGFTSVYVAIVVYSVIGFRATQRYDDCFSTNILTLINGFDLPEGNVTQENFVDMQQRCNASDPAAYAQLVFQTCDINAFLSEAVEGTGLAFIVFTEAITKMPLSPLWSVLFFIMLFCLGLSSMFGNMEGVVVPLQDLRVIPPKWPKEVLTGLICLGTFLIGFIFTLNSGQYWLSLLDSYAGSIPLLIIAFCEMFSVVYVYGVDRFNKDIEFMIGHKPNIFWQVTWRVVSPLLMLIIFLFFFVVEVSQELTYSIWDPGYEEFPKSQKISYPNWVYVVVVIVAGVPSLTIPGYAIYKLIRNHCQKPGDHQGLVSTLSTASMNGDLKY
SMILES,tested on,assay,system,conditions,how to read,endpoint,value
Cc1ncsc1-c1ccc(CNC(=O)[C@@H]2C[C@@H](O)CN2C(=O)[C@@H](NC(=O)C2(F)CC2)C(C)(C)C)c(OCCOCCOCCN2CCN(c3cc(-c4ccccc4O)nnc3N)CC2)c1,VHL-ElonginB-ElonginC complex human,"ternary complex formation, fluorescence polarization",,together with: SMARCA2 bromodomain,,cooperativity factor,4.4
N[C@@H](CO)C(=O)O,"Lysozyme C (LYZ, Gallus gallus, UniProt P00698)",intrinsic fluorescence,,"concentration not given, pH 6.9, 25 °C, lysozyme 10 µM",,number of binding sites,0.85 ± 0.08
CCCCCCCCCCCCC/C=C/[C@@H](O)[C@H](CO)NC(=O)CCCCCCCCCCCCCCCCCCCCC,"Protein SET (SET, Homo sapiens, UniProt Q01105, Y135C)","lipid binding, GFP pull-down LC-MS/MS",A549 overexpressing GFP-tagged protein,,reference: eluate plus flow-through,lipid fraction bound,14.3%
C=CC(=O)N1CCC[C@@H](n2nc(-c3ccc(Oc4ccccc4)cc3)c3c(N)ncnc32)C1,"Fibroblast growth factor receptor 4 (FGFR4, Homo sapiens, UniProt P22455)",,,10 µM,,remaining activity,59.9%
O=C1/C(=N/Nc2ccc(S(=O)(=O)O)cc2)C(c2ccc([N+](=O)[O-])cc2)=NN1c1ccccc1,"Ubiquitin-associated and SH3 domain-containing protein B (UBASH3B, Homo sapiens, UniProt Q8TF42)",enzyme activity,,together with: OMFP,,maximum inhibition,~70%
CN(CCCCCCNC(=O)CNc1cccc2c1C(=O)N(C1CCC(=O)NC1=O)C2=O)Cc1cn(Cc2ccc(C(=O)NO)cc2)c2ccccc12.O=C(O)C(F)(F)F (stereo not drawn),"Protein deacetylase HDAC6 (HDAC6, Homo sapiens, UniProt Q9UBN7)","protein degradation, degrader, western blot",MM1.S cells,24 h,reference: HDAC10 over HDAC6,DC50 ratio,3.1 fold
O=S(=O)(O)O,"GUK1 (Homo sapiens, UniProt Q16774)","enzyme activity, NADH-coupled",,"10 mM, together with: ATP 500 µM",,reaction velocity,0.0604 µM/s and 0.0774 µM/s and 0.0684 µM/s
O=C1C=CC(=O)c2c1ccc1ccccc21,"Aryl hydrocarbon receptor (Danio rerio, UniProt Q9YGV3)","reporter gene, agonist, luciferase reporter",ZF-4,4.572 µM,reference: vehicle control,fold change,3
O=C(O)CSc1nnc(NC(=O)COc2ccccc2)s1,"Ubiquitin carboxyl-terminal hydrolase 13, ZnF-UBD domain (USP13, Homo sapiens, UniProt Q92995)",,,,,Kd,745 µM
COc1ccccc1C(=O)C#Cc1ccc(F)c(F)c1,"mvfR (Pseudomonas aeruginosa, UniProt Q9I4X0)",receptor binding,,"concentration not given, 1.5 h, together with: PQS at 1:1 ratio",reference: control,binding,87%
O=C(O)COc1cnc2ccccc2n1,"Protein deacetylase HDAC6, ZnF-UBD domain (HDAC6, Homo sapiens, UniProt Q9UBN7)",,,,,Kd,> 1000 µM
CCN1CCC[C@H]1CNC(=O)c1c(O)c(Cl)cc(Cl)c1OC,"G-protein coupled receptor 35 (GPR35, Homo sapiens, UniProt Q9HC97)","β-arrestin recruitment, TANGO luminescence",,concentration not given,reference: basal luminescence,log2 fold change,-0.08
Cn1cc(-c2ccc(-c3cncc(Cl)c3N3CCC4(CCNC4=O)CC3)cc2)cn1,COLO 205,"gene expression, microarray, refers to: CRYBB1 mRNA",,"concentration not given, 2 h",reference: untreated cells,log2 fold change,-2.02
CCCCC[S+]([O-])c1n[nH]c(N)n1 (stereo not drawn),"DDB1- and CUL4-associated factor 7 (Homo sapiens, UniProt P61962)","binding, affinity selection mass spectrometry",,,reference: other proteins in batch,fold enrichment,0.896
CC(=O)N[C@H](C(=O)N1C[C@H](O)C[C@H]1C(=O)NCc1ccc(-c2scnc2C)cc1)C(C)(C)SCCCCCCNC(=O)C[C@@H]1N=C(c2ccc(Cl)cc2)c2c(sc(C)c2C)-n2c(C)nnc21,"BRD2/VHL, BD2; with VCB (Homo sapiens, UniProt P25440+P40337)","ternary complex binding, ITC",,"25 °C, together with: VHL-ElonginB-ElonginC titrated into compound:PROTAC:Brd2^BD2 complex",,ΔH,-7.2 ± 0.6 kcal/mol
CCNC(=O)/C=C/c1cccc(Br)c1,"Sodium-dependent neutral amino acid transporter B(0)AT1 (SLC6A19, Homo sapiens, UniProt Q695T7)","inhibitor, FLIPR membrane potential",CHO-BC cells,"30 µM, unit not given",reference: no inhibitor,remaining transport activity,0.0746
COc1cc(O)c2c(c1)oc(=O)c1c3cc(O)c(O)cc3oc21,"Alpha-glucosidase MAL12 (MAL12, Saccharomyces cerevisiae S288c, UniProt P53341)",fluorescence quenching,,304 K,,ΔS,-318 J/(mol·K)
COc1ccnn2ncc(-c3ccnc(N(C)C)n3)c12,"Tyrosine-protein kinase ABL1 (ABL1, Homo sapiens, UniProt P00519, F317I)",KINOMEscan,,1 µM,reference: control,remaining binding,98%

# For quick reference, copied from above:
SMILES,tested on,assay,system,conditions,how to read,endpoint,value
O=C1/C(=N/Nc2ccc(S(=O)(=O)O)cc2)C(c2ccc([N+](=O)[O-])cc2)=NN1c1ccccc1,"Ubiquitin-associated and SH3 domain-containing protein B (UBASH3B, Homo sapiens, UniProt Q8TF42)",enzyme activity,,together with: OMFP,,maximum inhibition,~70%
CN(CCCCCCNC(=O)CNc1cccc2c1C(=O)N(C1CCC(=O)NC1=O)C2=O)Cc1cn(Cc2ccc(C(=O)NO)cc2)c2ccccc12.O=C(O)C(F)(F)F (stereo not drawn),"Protein deacetylase HDAC6 (HDAC6, Homo sapiens, UniProt Q9UBN7)","protein degradation, degrader, western blot",MM1.S cells,24 h,reference: HDAC10 over HDAC6,DC50 ratio,3.1 fold
